Experimental data of several laboratories.
Each line is one published result; not all experiments were run side by side. ± marks the error that the study gave.
SCRIB PDZ3 domain: Protein scribble homolog, PDZ3 domain (SCRIB, Homo sapiens, UniProt Q14160)
Sequence of UniProt Q14160 (whole entry, looked up): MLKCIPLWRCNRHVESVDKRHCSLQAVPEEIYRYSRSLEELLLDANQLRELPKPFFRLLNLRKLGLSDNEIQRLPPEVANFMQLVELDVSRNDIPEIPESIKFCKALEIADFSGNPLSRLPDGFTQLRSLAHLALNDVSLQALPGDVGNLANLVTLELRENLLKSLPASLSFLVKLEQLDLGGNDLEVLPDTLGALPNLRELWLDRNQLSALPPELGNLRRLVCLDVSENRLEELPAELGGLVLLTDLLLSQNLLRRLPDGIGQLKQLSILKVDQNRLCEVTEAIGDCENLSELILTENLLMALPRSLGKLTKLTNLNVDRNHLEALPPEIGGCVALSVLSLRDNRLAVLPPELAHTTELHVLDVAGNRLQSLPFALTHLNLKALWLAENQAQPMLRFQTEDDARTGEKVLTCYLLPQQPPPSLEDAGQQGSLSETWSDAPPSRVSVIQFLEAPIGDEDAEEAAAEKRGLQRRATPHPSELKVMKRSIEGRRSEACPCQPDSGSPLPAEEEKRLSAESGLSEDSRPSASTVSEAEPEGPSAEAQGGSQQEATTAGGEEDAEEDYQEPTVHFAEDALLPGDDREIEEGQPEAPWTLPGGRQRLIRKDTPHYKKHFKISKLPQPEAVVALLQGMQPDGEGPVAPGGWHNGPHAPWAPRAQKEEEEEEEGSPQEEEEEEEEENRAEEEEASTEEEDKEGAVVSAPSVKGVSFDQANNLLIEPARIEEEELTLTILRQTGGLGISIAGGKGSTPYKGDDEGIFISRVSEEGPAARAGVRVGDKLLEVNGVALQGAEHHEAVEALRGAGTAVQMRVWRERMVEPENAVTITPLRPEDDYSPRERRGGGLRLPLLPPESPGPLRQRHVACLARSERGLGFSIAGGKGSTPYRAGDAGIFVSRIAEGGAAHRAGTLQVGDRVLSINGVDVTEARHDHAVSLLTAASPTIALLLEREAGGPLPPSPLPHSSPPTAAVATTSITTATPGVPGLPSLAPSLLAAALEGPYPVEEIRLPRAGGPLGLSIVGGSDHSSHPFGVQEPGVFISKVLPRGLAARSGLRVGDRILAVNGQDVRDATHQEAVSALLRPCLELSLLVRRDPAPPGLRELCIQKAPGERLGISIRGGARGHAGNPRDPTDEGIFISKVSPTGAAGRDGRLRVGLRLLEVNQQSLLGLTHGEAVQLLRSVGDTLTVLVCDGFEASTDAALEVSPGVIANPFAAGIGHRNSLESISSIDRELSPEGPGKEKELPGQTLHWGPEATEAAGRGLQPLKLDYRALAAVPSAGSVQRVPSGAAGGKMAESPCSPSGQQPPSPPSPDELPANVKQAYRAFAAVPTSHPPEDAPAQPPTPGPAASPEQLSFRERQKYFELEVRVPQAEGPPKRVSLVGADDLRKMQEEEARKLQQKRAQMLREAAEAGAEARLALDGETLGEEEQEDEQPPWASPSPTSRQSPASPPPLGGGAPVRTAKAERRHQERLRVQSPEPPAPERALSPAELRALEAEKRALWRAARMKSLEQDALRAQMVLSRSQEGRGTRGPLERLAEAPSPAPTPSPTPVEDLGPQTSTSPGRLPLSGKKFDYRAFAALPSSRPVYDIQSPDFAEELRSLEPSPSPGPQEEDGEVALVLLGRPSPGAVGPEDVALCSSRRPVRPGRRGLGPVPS
4'-phosphopantetheinyl transferase PptT: 4'-phosphopantetheinyl transferase PptT (Mycobacterium tuberculosis, UniProt O33336)
Sequence of UniProt O33336 (whole entry, looked up): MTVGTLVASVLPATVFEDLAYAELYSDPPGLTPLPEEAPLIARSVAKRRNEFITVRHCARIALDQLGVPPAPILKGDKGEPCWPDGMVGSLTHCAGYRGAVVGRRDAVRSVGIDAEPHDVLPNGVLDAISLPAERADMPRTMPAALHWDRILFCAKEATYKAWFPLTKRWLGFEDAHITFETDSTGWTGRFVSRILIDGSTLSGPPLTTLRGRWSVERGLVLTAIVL
Sequence of UniProt P20782 (whole entry, unmodified, looked up): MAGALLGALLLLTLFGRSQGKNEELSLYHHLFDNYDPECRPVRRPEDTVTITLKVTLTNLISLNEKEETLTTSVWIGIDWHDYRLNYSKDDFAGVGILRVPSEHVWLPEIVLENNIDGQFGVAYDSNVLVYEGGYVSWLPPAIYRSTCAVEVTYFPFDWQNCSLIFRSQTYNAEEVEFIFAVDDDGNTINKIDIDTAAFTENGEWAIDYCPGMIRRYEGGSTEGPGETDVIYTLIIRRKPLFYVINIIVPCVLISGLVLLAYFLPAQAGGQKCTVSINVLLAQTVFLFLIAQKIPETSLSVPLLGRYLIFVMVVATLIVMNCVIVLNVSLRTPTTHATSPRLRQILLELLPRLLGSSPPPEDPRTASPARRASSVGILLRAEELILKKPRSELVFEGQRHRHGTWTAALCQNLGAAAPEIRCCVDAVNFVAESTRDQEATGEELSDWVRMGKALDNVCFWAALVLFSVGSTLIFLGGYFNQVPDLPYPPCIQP
Sequence of UniProt P04756 (whole entry, unmodified, looked up): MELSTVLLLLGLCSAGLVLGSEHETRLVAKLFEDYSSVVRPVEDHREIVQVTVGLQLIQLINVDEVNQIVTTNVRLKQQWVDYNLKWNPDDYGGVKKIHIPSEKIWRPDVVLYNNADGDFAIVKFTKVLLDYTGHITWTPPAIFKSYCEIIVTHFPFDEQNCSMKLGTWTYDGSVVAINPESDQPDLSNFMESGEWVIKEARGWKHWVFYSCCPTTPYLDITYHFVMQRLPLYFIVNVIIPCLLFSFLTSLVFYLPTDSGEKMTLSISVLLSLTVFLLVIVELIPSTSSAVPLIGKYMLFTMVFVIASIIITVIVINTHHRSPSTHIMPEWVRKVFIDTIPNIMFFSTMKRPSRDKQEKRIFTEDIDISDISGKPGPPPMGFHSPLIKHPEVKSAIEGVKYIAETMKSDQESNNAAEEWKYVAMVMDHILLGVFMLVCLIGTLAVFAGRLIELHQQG
Sequence of UniProt Q15393 (whole entry, looked up): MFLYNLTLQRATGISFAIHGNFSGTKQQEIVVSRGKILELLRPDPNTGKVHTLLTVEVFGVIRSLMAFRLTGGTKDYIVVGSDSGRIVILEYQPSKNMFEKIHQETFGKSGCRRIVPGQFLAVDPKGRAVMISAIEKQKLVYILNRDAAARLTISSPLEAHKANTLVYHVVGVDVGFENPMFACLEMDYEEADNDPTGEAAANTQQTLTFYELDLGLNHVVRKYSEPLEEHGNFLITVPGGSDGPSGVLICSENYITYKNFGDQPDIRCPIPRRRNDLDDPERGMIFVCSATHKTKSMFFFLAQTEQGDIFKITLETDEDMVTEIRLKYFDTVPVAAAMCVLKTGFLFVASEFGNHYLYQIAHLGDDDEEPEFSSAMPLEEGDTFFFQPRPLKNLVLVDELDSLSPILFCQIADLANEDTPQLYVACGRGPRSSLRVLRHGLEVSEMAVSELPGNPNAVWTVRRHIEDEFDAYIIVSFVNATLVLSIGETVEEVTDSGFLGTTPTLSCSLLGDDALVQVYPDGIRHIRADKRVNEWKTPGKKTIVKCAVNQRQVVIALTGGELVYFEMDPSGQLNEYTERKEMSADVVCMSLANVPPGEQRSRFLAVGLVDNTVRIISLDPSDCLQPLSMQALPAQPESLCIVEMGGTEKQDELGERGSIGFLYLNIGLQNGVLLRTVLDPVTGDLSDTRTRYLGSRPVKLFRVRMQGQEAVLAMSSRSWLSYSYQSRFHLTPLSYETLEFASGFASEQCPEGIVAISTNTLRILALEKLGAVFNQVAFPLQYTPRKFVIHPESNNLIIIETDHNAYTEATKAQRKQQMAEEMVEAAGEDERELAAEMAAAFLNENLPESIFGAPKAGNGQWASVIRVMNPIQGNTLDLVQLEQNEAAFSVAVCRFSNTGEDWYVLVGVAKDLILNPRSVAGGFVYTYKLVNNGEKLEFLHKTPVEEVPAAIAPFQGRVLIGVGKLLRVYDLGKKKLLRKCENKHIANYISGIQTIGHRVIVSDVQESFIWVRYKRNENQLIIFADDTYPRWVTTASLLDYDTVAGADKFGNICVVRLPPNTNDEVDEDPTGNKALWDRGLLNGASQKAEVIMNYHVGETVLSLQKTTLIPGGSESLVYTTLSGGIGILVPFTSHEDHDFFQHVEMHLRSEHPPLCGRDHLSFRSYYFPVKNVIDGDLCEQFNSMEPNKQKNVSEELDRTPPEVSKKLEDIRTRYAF
Sequence of UniProt Q02153 (whole entry, unmodified, looked up): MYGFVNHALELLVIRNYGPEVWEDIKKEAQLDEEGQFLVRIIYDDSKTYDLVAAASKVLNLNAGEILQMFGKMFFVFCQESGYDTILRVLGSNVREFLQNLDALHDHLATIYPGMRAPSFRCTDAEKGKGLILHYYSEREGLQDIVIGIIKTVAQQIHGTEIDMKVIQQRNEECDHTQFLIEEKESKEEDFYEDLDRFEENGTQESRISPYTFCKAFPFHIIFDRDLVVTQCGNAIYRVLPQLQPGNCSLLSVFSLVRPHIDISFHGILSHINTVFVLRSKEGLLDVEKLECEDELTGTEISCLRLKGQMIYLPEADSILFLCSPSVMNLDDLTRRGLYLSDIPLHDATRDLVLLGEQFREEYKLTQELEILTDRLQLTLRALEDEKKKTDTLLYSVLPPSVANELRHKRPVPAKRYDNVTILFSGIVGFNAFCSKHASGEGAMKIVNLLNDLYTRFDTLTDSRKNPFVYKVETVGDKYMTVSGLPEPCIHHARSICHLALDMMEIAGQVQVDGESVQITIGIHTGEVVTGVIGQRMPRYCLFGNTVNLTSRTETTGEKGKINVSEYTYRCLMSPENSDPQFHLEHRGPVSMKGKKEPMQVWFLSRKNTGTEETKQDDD
Sequence of UniProt P48039 (whole entry, looked up): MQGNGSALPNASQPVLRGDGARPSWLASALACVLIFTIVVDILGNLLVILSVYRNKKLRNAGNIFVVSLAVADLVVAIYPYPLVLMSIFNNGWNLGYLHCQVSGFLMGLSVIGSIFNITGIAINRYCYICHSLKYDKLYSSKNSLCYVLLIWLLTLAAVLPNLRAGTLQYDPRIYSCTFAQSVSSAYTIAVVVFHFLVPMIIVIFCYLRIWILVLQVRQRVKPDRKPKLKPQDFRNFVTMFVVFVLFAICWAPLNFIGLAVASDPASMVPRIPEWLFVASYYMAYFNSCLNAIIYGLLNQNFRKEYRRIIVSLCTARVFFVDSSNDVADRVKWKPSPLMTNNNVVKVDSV

| Structure (SMILES) | tested on | test | system | conditions | measurement | result |
| --- | --- | --- | --- | --- | --- | --- |
| O=C(O)CNCP(=O)(O)O | EPSP synthase (Zea mays, UniProt A0A1D6NVZ6, P168S/P188S/T164I) | – | – | – | Ki | 859 ± 42 µM |
| CSCC[C@H](NC(=O)CNC(=O)[C@H](Cc1ccccc1)NC(=O)[C@H](CC(=O)O)NC(=O)CNC(=O)c1ccc2c(c1)C(=O)OC21c2ccc(N(C)C)cc2Oc2cc(N(C)C)ccc21)C(=O)N[C@@H](CO)C(=O)N[C@@H](CCCNC(=N)N)C(=O)N[C@@H](CC(=O)O)C(=O)N[C@H](C(=O)N[C@@H](Cc1ccc(OP(=O)(O)O)cc1)C(=O)N[C@@H](CO)C(=O)N[C@H](C(=O)N[C@@H](CC(=O)O)C(=O)N[C@@H](Cc1ccc(O)cc1)C(=O)N[C@@H](Cc1ccc(O)cc1)C(=O)N[C@@H](CCCNC(=N)N)C(=O)N[C@H](C(=O)N[C@@H](CC(=O)O)C(=O)O)C(C)C)[C@@H](C)O)C(C)C | SH3 domain-binding protein 2, SH2 domain (SH3BP2, Homo sapiens, UniProt P78314) | binding | – | – | Kd | 0.561 µM |
| COc1cc2c(Oc3ccc4[nH]c(C)cc4c3F)ccnc2cc1OCC1(N)CC1 | – | – | paediatric refractory sarcoma patients | 8 mg | AST elevation incidence | 25% |
| CC(C)C[C@H](NC(=O)[C@H](CC(N)=O)NC(=O)[C@H](CCC(=O)O)NC(=O)CNC(=O)[C@@H]1CCCN1C(=O)[C@H](CCC(N)=O)NC(=O)[C@H](Cc1ccc(O)cc1)NC(=O)[C@H](CCC(N)=O)NC(=O)[C@@H]1CCCN1C(=O)[C@@H](N)CCC(=O)O)C(=O)O | SCRIB PDZ3 domain | binding, fluorescence polarization | solution | Scribble PDZ3 domain | Kd | 48.6 µM |
| CCc1cccc(CC)c1NC(=O)NC(=N)NCCCSC | 4'-phosphopantetheinyl transferase PptT | inhibitor | – | – | IC50 | > 100 µM |
| CC(C)C[C@H](NC(=O)[C@@H](NC(=O)[C@@H](NC(=O)[C@H](CO)NC(=O)[C@@H]1CCCN1C(=O)[C@H](CC(C)C)NC(=O)[C@H](CCCCN)NC(=O)[C@H](CCCNC(=N)N)NC(=O)[C@@H](NC(=O)[C@@H](N)CCCNC(=N)N)C(C)C)[C@@H](C)O)[C@@H](C)O)C(=O)O | SCRIB PDZ3 domain | binding, fluorescence polarization | solution | Scribble PDZ3 domain | Kd | 27 µM |
| CCc1cccc(CC)c1NC(=O)NC(=N)NCCSC | 4'-phosphopantetheinyl transferase PptT | inhibitor | – | – | IC50 | > 100 µM |
| O=C(O)c1ccc(CN2C(=O)CN(C(=O)c3ccco3)c3cc(-c4ccccc4)c(Oc4ccc(C(=O)O)cc4)cc32)cc1 | Soluble guanylate cyclase alpha1/beta1 complex (Homo sapiens, UniProt Q02108+Q02153, H105A) | enzyme activity, activator | – | – | EC50 | 1.8 µM |
| CCNC(=NC(=O)OC(C)(C)C)NC(=O)Nc1c(CC)cc(C(=O)NCc2ccc(OC)cc2)cc1CC | 4'-phosphopantetheinyl transferase PptT | inhibitor | – | – | IC50 | > 100 µM |
| CC[C@H](C)[C@H](NC(=O)[C@@H]1CCCN1C(=O)[C@H](Cc1c[nH]cn1)NC(=O)[C@@H](NC(=O)[C@@H](N)Cc1ccccc1)C(C)C)C(=O)N[C@@H](CC(C)C)C(=O)N[C@@H](CCC(N)=O)C(=O)N[C@@H](CO)C(=O)N[C@@H](C)C(=O)N[C@H](C(=O)O)C(C)C | SCRIB PDZ3 domain | binding, fluorescence polarization | solution | Scribble PDZ3 domain | Kd | 9.8 µM |
| CCCCCCNC(=N)NC(=O)Nc1c(CC)cccc1CC | 4'-phosphopantetheinyl transferase PptT | inhibitor | – | – | IC50 | > 100 µM |
| CC(C)C[C@H](NC(=O)[C@@H](N)C(C)C)C(=O)N[C@@H](Cc1ccc(O)cc1)C(=O)N1CCC[C@H]1C(=O)N[C@@H](CCCNC(=N)N)C(=O)N[C@@H](CCC(=O)O)C(=O)NCC(=O)N[C@H](C(=O)N[C@@H](CCC(=O)O)C(=O)N[C@H](C(=O)O)C(C)C)[C@@H](C)O | SCRIB PDZ3 domain | binding, fluorescence polarization | solution | Scribble PDZ3 domain | Kd | 11.7 µM |
| COc1cc(Nc2ncc(F)c(Nc3ccc4c(n3)NC(=O)C(C)(C)O4)n2)cc(OC)c1OC | Melatonin receptor type 1A (MTNR1A, Homo sapiens, UniProt P48039) | – | – | – | IC50 | > 10 µM |
| C[N+](C)(C)C | Chrnd/Chrna1/Chrne (Mus musculus, UniProt P02716+P04756+P20782, G173K/S470W) | single-channel kinetics | – | K chain side site | Kd | 17.2 µM |
| C[C@H]1CN(c2n[nH]c3nc(N[C@H]4CC[C@H](NS(=O)(=O)CCC(F)(F)F)CC4)ncc23)CCO1 | Splicing factor 3B subunit 3 (Homo sapiens, UniProt Q15393) | biochemical | – | – | IC50 | ≥ 20 µM |
| CCCCNC(=N)NC(=O)Nc1c(CC)cccc1CC | 4'-phosphopantetheinyl transferase PptT | inhibitor | – | – | IC50 | 37.6 µM |
| CSCC[C@H](NC(=O)CN)C(=O)N[C@@H](CCCCN)C(=O)N[C@@H](CCCNC(=N)N)C(=O)N[C@@H](CC(C)C)C(=O)N[C@H](C(=O)N[C@@H](CO)C(=O)N[C@H](C(=O)N[C@@H](CCCNC(=N)N)C(=O)N[C@@H](CC(C)C)C(=O)O)[C@@H](C)O)[C@@H](C)O | SCRIB PDZ3 domain | binding, fluorescence polarization | solution | Scribble PDZ3 domain | Kd | 25.2 µM |

A few entries again:
| Structure (SMILES) | tested on | test | system | conditions | measurement | result |
| --- | --- | --- | --- | --- | --- | --- |
| CC(C)C[C@H](NC(=O)[C@@H](N)C(C)C)C(=O)N[C@@H](Cc1ccc(O)cc1)C(=O)N1CCC[C@H]1C(=O)N[C@@H](CCCNC(=N)N)C(=O)N[C@@H](CCC(=O)O)C(=O)NCC(=O)N[C@H](C(=O)N[C@@H](CCC(=O)O)C(=O)N[C@H](C(=O)O)C(C)C)[C@@H](C)O | SCRIB PDZ3 domain | binding, fluorescence polarization | solution | Scribble PDZ3 domain | Kd | 11.7 µM |
